Measurements from different studies.
Each line is one published result; not all experiments were run side by side. ± gives the spread as reported.

The tissue uptake of `CN[C@@](C)(C[18F])C(=O)O` is reported as 13 ± 2.5 %ID/g (SCID mouse SK-OV-3 xenograft, spleen; 30 min, post injection).
`[Met(O2)35]Aβ40` — result for “delay of fibril formation”: about 24 h (electron microscopy; sodium phosphate buffer; 10 µM, pH 7.4, 25 °C, agitation 200 rpm; relative to: wild-type peptide).
`CCCCCOc1ccc(-c2ccc(-c3ccc(C(=O)N[C@H]4C[C@@H](O)[C@@H](O)NC(=O)[C@@H]5[C@@H](O)[C@@H](C)CN5C(=O)[C@H]([C@@H](C)O)NC(=O)[C@H]([C@H](O)[C@@H](O)c5ccc(O)cc5)NC(=O)[C@@H]5C[C@@H](O)CN5C(=O)[C@H]([C@@H](C)O)NC4=O)cc3)cc2)cc1` — result for “AUC(0-24) steady state mean”: 92100 ng·h/mL (patients aged sample B to <sample C years, plasma; intravenous, loading 200 then 100 mg daily).
The distribution half-life of `COc1cccc2c1C(=O)c1c(O)c3c(c(O)c1C2=O)C[C@@](O)(C(=O)CO)C[C@@H]3O[C@H]1C[C@H](N)[C@H](O)[C@H](C)O1` is reported as 2.7 min (two-compartment model; ICR mice, male, plasma; intravenous, 6.0 mg/kg).
For `O[C@H]1CCCN[C@@H]1CCCn1cnc2c(Cl)c(Cl)ccc21`, “renal clearance (0-72 h)” read 262 mL/min (healthy volunteers, urine; oral, 100 mg capsule single, geometric mean).
For `CC(=O)N[C@H](CCCCNC(=O)C(C)F)C(=O)N[C@@H](CS)C(=O)N[C@@H](CS)C(=O)N[C@@H](CCC(=O)O)C(=O)N[C@@H](Cc1c[nH]cn1)C(=O)N[C@H](Cc1ccccc1)C(=O)N[C@@H](CCCNC(=N)N)C(=O)N[C@@H](Cc1c[nH]c2ccccc12)C(=O)N[C@@H](CS)C(=O)N[C@@H](CCCNC(=N)N)C(=O)N1CCC[C@H]1C(=O)N[C@H](C(N)=O)C(C)C` (stereo partly drawn) [fluorine-18 labelled], the tissue uptake was 0.31 ± 0.07 %ID/g (C57BL/6 mice, male, B16-F10 tumour, stomach; intravenous, 4 h).
Under “treatment-related adverse events”, `O=C(c1ccc(F)c(F)c1Nc1ccc(I)cc1F)N1CC(O)([C@@H]2CCCCN2)C1` is recorded as 0% (item: retinal detachment; human patients; oral, dose not given, dose escalation, tablet, grade G3).
`Cc1cnc(C(=O)N[C@H]2CCCCC/C=C\[C@@H]3C[C@@]3(C(=O)NS(=O)(=O)C3CC3)NC(=O)[C@@H]3C[C@@H](Oc4nc5ccccc5c5ccccc45)CN3C2=O)cn1` gave an AUC(0-24) of 10300 ng·h/mL (healthy human volunteers, plasma; oral, dose not given, together with: omeprazole plus 2D regimen).
`CCCCCCCCCCCCCCCC[N+](C)(C)Cc1ccccc1` has a hepatic clearance of 3.39 mL/h/g liver (in vitro-in vivo extrapolation; human).
For `Oc1cccc2ccccc12`, the body length was 38.2 ± 1.4 mm (fish short-term reproduction; Oryzias latipes, male, water, flow-through; 258 µg/L, end of exposure).
`Cc1cc(C)c(/C=C2\C(=O)Nc3ccccc32)[nH]1`: “maximum tolerated concentration” 2 µM (dose-limiting toxicity; zebrafish embryos, water; immersion, 72 h).
`Cc1nc(Nc2ncc(C(=O)Nc3c(C)cccc3Cl)s2)cc(N2CCN(CCO)CC2)n1` has a terminal half-life of 3.96 ± 2.33 h (male C57BL/6 mouse wild type, plasma; intravenous, 10 mg/kg).
